Experimental data of several laboratories.
Target: Tyrosine-protein kinase CSK (CSK, Homo sapiens, UniProt P41240)
Sequence of UniProt P41240 (whole entry, looked up): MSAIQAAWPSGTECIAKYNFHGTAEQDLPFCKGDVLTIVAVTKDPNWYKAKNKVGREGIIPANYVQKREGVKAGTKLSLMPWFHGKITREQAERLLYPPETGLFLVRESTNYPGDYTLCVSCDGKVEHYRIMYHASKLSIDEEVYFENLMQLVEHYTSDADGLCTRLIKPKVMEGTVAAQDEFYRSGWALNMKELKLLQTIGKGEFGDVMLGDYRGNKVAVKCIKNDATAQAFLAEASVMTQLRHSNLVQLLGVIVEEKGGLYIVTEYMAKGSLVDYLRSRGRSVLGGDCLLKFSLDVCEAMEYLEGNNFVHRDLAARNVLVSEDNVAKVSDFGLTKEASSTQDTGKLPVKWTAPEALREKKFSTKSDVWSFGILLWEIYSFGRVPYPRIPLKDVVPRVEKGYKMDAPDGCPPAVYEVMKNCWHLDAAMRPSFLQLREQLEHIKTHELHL

With `CC(C)[C@H]1NC(=O)C[C@H]2/C=C/CCSSC[C@@H](NC1=O)C(=O)N[C@H](Cc1cccc3ccccc13)C(=O)NCC(=O)O2` the inhibition was 2.7% (enzyme activity, inhibitor; 10 µM).
The inhibition of `CN(/N=C/c1ccccc1C(=O)O)c1nc(-c2ccccc2Cl)cs1` is reported as -9.56% (enzyme activity, inhibitor; 1 µM).
The inhibition of `CS(C)(=O)=Nc1ccc(-c2ccc(-c3nc4cc(O[C@@H]5CO[C@H]6[C@@H]5OC[C@H]6O)[nH]c4cc3F)cc2)cc1` is reported as 11% (enzyme activity, inhibitor; 10 µM).
For `O=C(O)c1ccccc1/C=N/Nc1nc(-c2ccccc2Cl)cs1`, the inhibition was -10.6% (enzyme activity, inhibitor; 1 µM).
The inhibition of `N[C@H](C(=O)N1CCCC1)C1CCN(c2nccc3c(-c4ncc(Cl)cc4Cl)cccc23)CC1` is reported as 19.9% (kinase activity, inhibitor; 10 µM, added: ATP 1 mM).
The inhibition of `O=C(CN1CN(c2ccccc2)C2(CCN(C(=O)c3cnc4[nH]ncc4c3)CC2)C1=O)NCC(F)(F)F` is reported as < 50% (inhibitor; concentration not given).
`CN(C)[C@H]1C[C@@]23CC[C@@]4(O2)C(=CC[C@]2(C)[C@@H](c5ccc6ccncc6c5)CC[C@H]24)C=C3[C@@H](O)[C@@H]1O` has an inhibition of -10.2% (ATP probe labelling, inhibitor, KiNativ profiling; 1 µM).
`O=C1NC(=O)c2c1c1cc(F)c[n+]3c1c1c2c2cc(O)ccc2[n]1[Ru-4]312([N]=C=S)[S+]3CC[S+]1CC[S+]2CC3` (centres unmarked) gave a remaining activity of 108% (enzyme activity; 100 nM, human enzyme, added: 10 µM ATP; baseline: untreated).

Some of these lines once more:
`CN(C)[C@H]1C[C@@]23CC[C@@]4(O2)C(=CC[C@]2(C)[C@@H](c5ccc6ccncc6c5)CC[C@H]24)C=C3[C@@H](O)[C@@H]1O` has an inhibition of -10.2% (ATP probe labelling, inhibitor, KiNativ profiling; 1 µM).
